# Measurements from different studies.
# Numbered parts are unrelated; each lists some results of a single study. Positions count from the first letter of the parent shown.
# Sequence of UniProt P10721 (whole entry, looked up): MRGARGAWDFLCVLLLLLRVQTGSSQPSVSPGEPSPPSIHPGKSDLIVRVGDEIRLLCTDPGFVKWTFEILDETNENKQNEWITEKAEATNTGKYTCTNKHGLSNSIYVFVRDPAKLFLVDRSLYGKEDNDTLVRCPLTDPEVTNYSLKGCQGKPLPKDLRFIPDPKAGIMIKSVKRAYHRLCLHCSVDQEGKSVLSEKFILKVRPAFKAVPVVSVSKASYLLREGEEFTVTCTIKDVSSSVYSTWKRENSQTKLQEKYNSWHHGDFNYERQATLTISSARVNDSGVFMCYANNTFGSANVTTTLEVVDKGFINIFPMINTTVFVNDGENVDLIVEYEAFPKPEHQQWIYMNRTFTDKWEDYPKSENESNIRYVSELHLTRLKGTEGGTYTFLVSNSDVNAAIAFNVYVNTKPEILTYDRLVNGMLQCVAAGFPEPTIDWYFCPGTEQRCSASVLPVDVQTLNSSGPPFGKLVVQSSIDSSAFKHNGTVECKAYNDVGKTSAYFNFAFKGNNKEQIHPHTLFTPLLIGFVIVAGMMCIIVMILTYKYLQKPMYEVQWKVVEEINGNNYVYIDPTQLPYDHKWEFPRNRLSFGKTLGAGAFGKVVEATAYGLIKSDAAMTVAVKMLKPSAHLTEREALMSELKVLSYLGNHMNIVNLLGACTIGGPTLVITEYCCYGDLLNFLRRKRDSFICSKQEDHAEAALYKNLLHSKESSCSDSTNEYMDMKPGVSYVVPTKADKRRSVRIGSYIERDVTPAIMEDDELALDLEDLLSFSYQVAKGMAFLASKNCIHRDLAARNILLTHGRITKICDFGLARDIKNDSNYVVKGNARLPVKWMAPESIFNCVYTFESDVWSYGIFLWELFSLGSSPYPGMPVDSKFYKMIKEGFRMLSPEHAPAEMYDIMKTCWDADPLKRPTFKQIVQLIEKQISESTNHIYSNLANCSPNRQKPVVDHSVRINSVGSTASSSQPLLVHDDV
# Sequence of UniProt Q08345 (whole entry, looked up): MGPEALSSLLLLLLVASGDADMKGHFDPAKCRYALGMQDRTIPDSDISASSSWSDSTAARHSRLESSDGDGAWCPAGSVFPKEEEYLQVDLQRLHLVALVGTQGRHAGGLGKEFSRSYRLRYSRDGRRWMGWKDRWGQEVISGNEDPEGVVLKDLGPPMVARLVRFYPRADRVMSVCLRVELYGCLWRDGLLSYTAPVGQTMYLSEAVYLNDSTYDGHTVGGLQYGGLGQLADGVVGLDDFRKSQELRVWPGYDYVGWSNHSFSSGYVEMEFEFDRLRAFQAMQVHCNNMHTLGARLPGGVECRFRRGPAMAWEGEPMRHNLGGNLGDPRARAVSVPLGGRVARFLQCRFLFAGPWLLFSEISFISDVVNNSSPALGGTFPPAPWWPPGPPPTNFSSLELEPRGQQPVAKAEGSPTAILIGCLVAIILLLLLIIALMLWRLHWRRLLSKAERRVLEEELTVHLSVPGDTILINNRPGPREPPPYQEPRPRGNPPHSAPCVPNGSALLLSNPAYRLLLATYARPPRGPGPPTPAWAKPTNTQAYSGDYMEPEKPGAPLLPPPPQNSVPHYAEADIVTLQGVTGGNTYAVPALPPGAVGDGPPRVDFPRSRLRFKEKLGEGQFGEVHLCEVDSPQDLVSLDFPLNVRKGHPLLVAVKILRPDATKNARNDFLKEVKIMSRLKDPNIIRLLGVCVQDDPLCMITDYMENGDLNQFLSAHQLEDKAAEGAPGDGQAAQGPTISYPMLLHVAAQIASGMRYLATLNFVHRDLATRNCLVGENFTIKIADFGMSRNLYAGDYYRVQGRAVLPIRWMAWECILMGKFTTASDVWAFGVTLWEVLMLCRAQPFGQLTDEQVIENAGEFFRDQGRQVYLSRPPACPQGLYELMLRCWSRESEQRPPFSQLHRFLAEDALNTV

# Sample 1
# Compound: COc1ccc2cc(OCC3(C(=O)O)CN(C(=O)c4ccc(F)cc4)C3)ccc2c1
# Effect on: cell-free assay
# Technique: competition with immobilised ligand
# Concentration: 1 µM
target,remaining binding [%]
"Epithelial discoidin domain-containing receptor 1 (DDR1, Homo sapiens, UniProt Q08345)",100
"Mast/stem cell growth factor receptor Kit (KIT, Homo sapiens, UniProt P10721)",100
"Receptor tyrosine-protein kinase erbB-3 (ERBB3, Homo sapiens, UniProt P21860)",89

# Sample 2
# Target: Histone acetyltransferase KAT6A, winged helix 1, GST fusion (KAT6A, Homo sapiens, UniProt Q92794, residues 1-85)
# Technique: protein binding microarray
# Form: double-stranded DNA, one strand shown
# Medium: in vitro
# Concentration: not given
# Notes: 8-mer, flanks averaged, mean of 2 arrays, mostly near background
# Baseline: not given
# Direction: higher = stronger binding
# Construct (chain): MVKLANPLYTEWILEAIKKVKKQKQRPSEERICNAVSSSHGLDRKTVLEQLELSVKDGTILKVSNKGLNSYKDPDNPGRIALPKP
Sequence,E-score
AATCCGGC,0.192
AAAGCAAA,-0.24
AGGCCAGA,-0.174
GATCAGGA,-0.175
CAATGGTG,-0.18
ACGCCCCG,0.264
TCTCTCAA,-0.099
AAGTTGAA,-0.298

# Sample 3
# Substitution: F66Y
# Target: ABI1, truncated, D143A, DHFR fusion (Arabidopsis thaliana)
# Technique: DHFR PCA, deep sequencing
# Medium: yeast
# Notes: methotrexate growth selection, single substitutions
# Baseline: wild-type fitted maximum
# Direction: higher = stronger binding
# Parent: PYL1, truncated, DHFR fusion (Arabidopsis thaliana); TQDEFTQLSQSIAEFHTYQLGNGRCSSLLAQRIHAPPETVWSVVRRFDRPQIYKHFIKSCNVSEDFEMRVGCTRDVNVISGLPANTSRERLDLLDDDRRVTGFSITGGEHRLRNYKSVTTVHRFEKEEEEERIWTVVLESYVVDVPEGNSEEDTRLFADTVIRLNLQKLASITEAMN; partner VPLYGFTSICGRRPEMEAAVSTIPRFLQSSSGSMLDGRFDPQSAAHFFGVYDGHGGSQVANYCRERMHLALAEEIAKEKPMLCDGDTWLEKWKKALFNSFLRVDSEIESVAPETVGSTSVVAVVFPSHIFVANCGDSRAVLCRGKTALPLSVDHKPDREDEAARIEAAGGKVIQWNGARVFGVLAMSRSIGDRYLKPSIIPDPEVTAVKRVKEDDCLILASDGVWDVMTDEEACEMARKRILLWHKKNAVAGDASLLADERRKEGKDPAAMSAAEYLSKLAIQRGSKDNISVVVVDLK
setting,relative binding score [%]
added: (+)-ABA 2500 µM,95.5
added: (+)-ABA 710 µM,102
added: (+)-ABA 4.8 µM,54.1
added: (+)-ABA 0.11 µM,10.4
added: (+)-ABA 200 µM,93.5
added: (+)-ABA 0.0091 µM,3.72

# Mixed results
SMILES,test system,endpoint,value
CCC[C@@H]1NC(=O)CSC[C@@H](C(=O)OCC)N(C)C(=O)[C@H](CC(C)C)NC(=O)[C@H](C)N(C)C(=O)[C@H](CC(C)C)NC(=O)[C@H](C)N(C)C(=O)[C@H]2CCCN2C(=O)[C@H](CC(C)C)NC(=O)CN(CCC)C1=O,hydrocarbon/water,logD,2.04

# A few entries again (sample 2):
Sequence,E-score
AAGTTGAA,-0.298
